Results collected from several papers.
Parts stem from different laboratories: compare values within a part only. Changes are numbered by the printed parent chain.

Series 1 — target: CEP164, C-terminal peptide (human); method: DHFR complementation, deep sequencing; sample: yeast; relative to: wild type; reading: higher = weaker binding
Notes: single substitutions, model-inferred values
Starting sequence: PDZK1, PDZ domain 2 (human); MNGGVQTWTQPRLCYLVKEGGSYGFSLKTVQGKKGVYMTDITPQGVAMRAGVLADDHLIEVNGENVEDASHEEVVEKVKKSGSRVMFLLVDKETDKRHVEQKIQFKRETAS; partner HNRVKVYRF
`E108Q` — result for “binding free energy change”: -0.461 kcal/mol.
`G63C` — result for “binding free energy change”: 0.207 kcal/mol.
For `L88K`, “binding free energy change” read -0.286 kcal/mol.
Under “binding free energy change”, `Q6K` is recorded as -0.0971 kcal/mol.
`G21K` — result for “binding free energy change”: 0.122 kcal/mol.
`Q104V` — result for “binding free energy change”: -0.108 kcal/mol.
Under “binding free energy change”, `T42I` is recorded as -0.267 kcal/mol.
For `G32T`, “binding free energy change” read 0.571 kcal/mol.

Series 2 — observed: binding; method: phage display NGS; form: peptide; relative to: input library
Target: UDP-N-acetylglucosamine--peptide N-acetylglucosaminyltransferase 110 kDa subunit (OGT, Homo sapiens, UniProt O15294)
Target sequence (O15294 1-1046): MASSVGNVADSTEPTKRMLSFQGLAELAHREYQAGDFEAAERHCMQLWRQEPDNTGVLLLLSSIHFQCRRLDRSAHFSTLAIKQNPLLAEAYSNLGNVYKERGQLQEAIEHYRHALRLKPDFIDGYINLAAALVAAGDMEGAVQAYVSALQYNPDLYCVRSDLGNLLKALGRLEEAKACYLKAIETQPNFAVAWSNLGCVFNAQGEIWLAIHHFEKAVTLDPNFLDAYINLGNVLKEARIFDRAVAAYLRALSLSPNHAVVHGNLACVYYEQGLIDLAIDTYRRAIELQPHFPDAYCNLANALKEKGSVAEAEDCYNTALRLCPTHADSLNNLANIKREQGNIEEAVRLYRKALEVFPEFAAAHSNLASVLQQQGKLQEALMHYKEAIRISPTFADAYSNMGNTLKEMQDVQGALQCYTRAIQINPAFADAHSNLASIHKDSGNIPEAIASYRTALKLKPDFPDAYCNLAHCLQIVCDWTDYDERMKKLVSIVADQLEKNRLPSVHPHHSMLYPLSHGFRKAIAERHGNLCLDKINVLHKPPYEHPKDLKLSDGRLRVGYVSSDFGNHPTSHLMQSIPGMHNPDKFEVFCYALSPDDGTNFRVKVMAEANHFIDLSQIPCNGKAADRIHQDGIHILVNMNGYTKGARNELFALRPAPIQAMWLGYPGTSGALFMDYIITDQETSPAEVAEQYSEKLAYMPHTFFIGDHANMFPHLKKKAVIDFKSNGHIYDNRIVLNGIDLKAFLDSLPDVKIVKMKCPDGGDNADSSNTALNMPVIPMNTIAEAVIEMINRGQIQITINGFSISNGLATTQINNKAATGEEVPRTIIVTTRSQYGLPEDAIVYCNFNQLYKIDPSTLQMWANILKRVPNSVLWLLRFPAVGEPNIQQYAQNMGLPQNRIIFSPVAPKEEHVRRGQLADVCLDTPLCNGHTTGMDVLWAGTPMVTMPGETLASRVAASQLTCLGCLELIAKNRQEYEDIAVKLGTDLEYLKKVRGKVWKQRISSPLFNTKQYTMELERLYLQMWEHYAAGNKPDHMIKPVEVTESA
For `HPKFLPSMHHYPQGD`, “minimum log2 enrichment ratio” read 2.14.
`HLHGHTYMPRHGEVT` — result for “minimum log2 enrichment ratio”: 3.76.
`RMTPQFRPFYQIIMR` — result for “minimum log2 enrichment ratio”: 2.48.
`FNSPFMPVYPITFTN`: “minimum log2 enrichment ratio” 3.67.
`EALFRYTPFYQIDI` — result for “minimum log2 enrichment ratio”: 3.77.
`HSYHHDTVITHNTHH`: “minimum log2 enrichment ratio” 2.92.
`RSFATTSYPPVYQIF`: “minimum log2 enrichment ratio” 2.06.
`YAPQYQILFNYNIKL`: “minimum log2 enrichment ratio” 3.97.
`FMHHQHVESPVHTYI`: “minimum log2 enrichment ratio” 1.47.
`THMHFTDHVNHETHL`: “minimum log2 enrichment ratio” 1.63.
`HVDTWHMSHHNYTH` — result for “minimum log2 enrichment ratio”: 2.79.
Under “minimum log2 enrichment ratio”, `DINLWMMHDHVHHVK` is recorded as 3.27.
`EIPTVDFHPMYMIKI`: “minimum log2 enrichment ratio” 1.44.
`VTPKDRYLPKYTITF`: “minimum log2 enrichment ratio” 4.19.
For `GLWPHHDHTHPSTEA`, “minimum log2 enrichment ratio” read 3.64.
Under “minimum log2 enrichment ratio”, `QLFPPVYIMKLDSQ` is recorded as 3.61.
For `HTAIMNRHQYHMHVN`, “minimum log2 enrichment ratio” read 2.06.
`HLPSHYEAKPTKHHR` — result for “minimum log2 enrichment ratio”: 3.23.
`HGQQMKNPHHHHPMW` — result for “minimum log2 enrichment ratio”: 3.72.
`QHQHHQIITHYVDVA` — result for “minimum log2 enrichment ratio”: 1.43.

Series 3 — target: vanadate, free oxyanion; method: microfluidic competitive inhibition; sample: in vitro, cell-free expressed; tested at: not given; reading: lower = stronger binding
Notes: derived from inhibition constants, unchanged parent 676 nM
Starting sequence: PafA, mature enzyme, eGFP fusion (Elizabethkingia meningoseptica, UniProt Q9KJX5); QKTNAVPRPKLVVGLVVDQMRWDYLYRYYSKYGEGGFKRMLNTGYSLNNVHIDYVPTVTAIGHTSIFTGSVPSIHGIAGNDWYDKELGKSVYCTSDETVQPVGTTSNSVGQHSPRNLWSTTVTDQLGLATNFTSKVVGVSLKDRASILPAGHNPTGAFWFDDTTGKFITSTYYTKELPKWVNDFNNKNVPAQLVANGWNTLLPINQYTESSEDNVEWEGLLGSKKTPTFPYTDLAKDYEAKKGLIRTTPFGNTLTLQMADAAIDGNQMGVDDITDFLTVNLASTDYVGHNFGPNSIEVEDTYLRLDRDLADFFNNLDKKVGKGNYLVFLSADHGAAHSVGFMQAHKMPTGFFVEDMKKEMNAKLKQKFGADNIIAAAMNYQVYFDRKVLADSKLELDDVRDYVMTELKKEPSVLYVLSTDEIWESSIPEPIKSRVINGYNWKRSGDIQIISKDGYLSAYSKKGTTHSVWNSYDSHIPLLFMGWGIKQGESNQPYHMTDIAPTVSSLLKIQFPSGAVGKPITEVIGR
For `I74G`, “oxyanion analog dissociation constant” read 860 nM.
`V503G`: “oxyanion analog dissociation constant” 2730 nM.
`K38V`: “oxyanion analog dissociation constant” 520 nM.
Under “oxyanion analog dissociation constant”, `G35A` is recorded as 681 nM.
Under “oxyanion analog dissociation constant”, `A60G` is recorded as 1050 nM.
Under “oxyanion analog dissociation constant”, `G36A` is recorded as 1130 nM.
For `G14A`, “oxyanion analog dissociation constant” read 979 nM.
Under “oxyanion analog dissociation constant”, `Y26G` is recorded as 660 nM.

Series 4 — target: CCNB2, cyclin fold, Cln2 fusion (human); method: yeast growth competition, sequencing; sample: yeast; notes: strong parent motif; relative to: not given; reading: higher = stronger binding
Starting sequence: viral docking peptide; YKVKRRLVFGADD; partner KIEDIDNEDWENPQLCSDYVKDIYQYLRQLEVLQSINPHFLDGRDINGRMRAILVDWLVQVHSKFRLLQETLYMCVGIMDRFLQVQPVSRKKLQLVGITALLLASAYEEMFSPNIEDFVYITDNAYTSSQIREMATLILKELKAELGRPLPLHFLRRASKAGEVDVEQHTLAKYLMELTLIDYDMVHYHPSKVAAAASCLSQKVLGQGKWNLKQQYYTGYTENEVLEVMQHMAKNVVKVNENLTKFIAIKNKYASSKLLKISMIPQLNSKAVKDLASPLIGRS
`YKVKRPLVFGADD [R6P]`: “normalised enrichment score” -0.212.
For `YKVKRRLVFFADD [G10F]`, “normalised enrichment score” read 0.879.
Under “normalised enrichment score”, `YKVKLRLVFGADD [R5L]` is recorded as 0.0544.
Under “normalised enrichment score”, `YKVKRRLVFGAGD [D12G]` is recorded as 1.36.
`YKVKRRLVFGARD [D12R]`: “normalised enrichment score” 0.477.
`YIVKRRLVFGADD [K2I]`: “normalised enrichment score” 1.38.
`YKVKRYLVFGADD [R6Y]` — result for “normalised enrichment score”: 1.08.
`YKVKRRLTFGADD [V8T]`: “normalised enrichment score” 2.15.
For `YKVKRSLVFGADD [R6S]`, “normalised enrichment score” read 0.348.
Under “normalised enrichment score”, `YKVKYRLVFGADD [R5Y]` is recorded as 0.383.
`YKVKRRHVFGADD [L7H]` — result for “normalised enrichment score”: 0.192.
`YKCKRRLVFGADD [V3C]` — result for “normalised enrichment score”: 0.717.
Under “normalised enrichment score”, `YKVKRRLVAGADD [F9A]` is recorded as -0.0964.
`YKVKRRLVFCADD [G10C]`: “normalised enrichment score” 1.82.
`YKVKRRLVFRADD [G10R]`: “normalised enrichment score” 1.67.
Under “normalised enrichment score”, `YKVKRRLVFGATD [D12T]` is recorded as 1.2.
For `YKVKRRLVFGDDD [A11D]`, “normalised enrichment score” read 3.04.
`YKVKRRLVFEADD [G10E]`: “normalised enrichment score” 3.04.

For quick reference, copied from above (series 4):
`YIVKRRLVFGADD [K2I]`: “normalised enrichment score” 1.38.
For `YKVKRSLVFGADD [R6S]`, “normalised enrichment score” read 0.348.
Under “normalised enrichment score”, `YKVKYRLVFGADD [R5Y]` is recorded as 0.383.
`YKVKRPLVFGADD [R6P]`: “normalised enrichment score” -0.212.
